Results collected from several papers.
Compare with care: the assays were run in different laboratories.
AGTR1: Type-1 angiotensin II receptor (AGTR1, Homo sapiens, UniProt P30556)

The inhibition of `CS(C)(=O)=Nc1ccc(-c2ccc(-c3nc4cc(O[C@@H]5CO[C@H]6[C@@H]5OC[C@H]6O)[nH]c4cc3F)cc2)cc1` is reported as -17% (Mast/stem cell growth factor receptor Kit (KIT, Homo sapiens, UniProt P10721, D816H); enzyme activity, inhibitor; 10 µM).
For `Cc1cc(Nc2nc(C[C@@]3(C(=O)O)CCN(Cc4cccc(Cl)c4F)[C@H](C)C3)cc(C)c2F)[nH]n1`, the inhibition was 7.6% (Potassium voltage-gated channel subfamily KQT member 1, with KCNE1 (KCNQ1, Homo sapiens, UniProt P51787); inhibitor; 10 µM).
`O=C(O)c1ccccc1/C=N/Nc1nc(-c2ccccc2Cl)cs1` gave an inhibition of -4.43% (Ephrin type-A receptor 8 (EPHA8, Homo sapiens, UniProt P29322); enzyme activity, inhibitor; 1 µM).
`CS(=O)(=O)Nc1cccc(-c2csc3cnc(Nc4ccc(N5CCN(CCCCCOc6cccc7c6C(=O)N(C6CCC(=O)NC6=O)C7=O)CC5)cc4)nc23)c1` (centres unmarked) has an inhibition of 1.21% (Mitogen-activated protein kinase kinase kinase kinase 5 (MAP4K5, Homo sapiens, UniProt Q9Y4K4); probe labelling, inhibitor, KiNativ chemoproteomics; MOLT-4; 1 µM).
`CN(C)[C@H]1C[C@@]23CC[C@@]4(O2)C(=CC[C@]2(C)[C@@H](c5ccc6ccncc6c5)CC[C@H]24)C=C3[C@@H](O)[C@@H]1O` gave an inhibition of -2.1% (Eukaryotic translation initiation factor 2-alpha kinase 3 (EIF2AK3, Homo sapiens, UniProt Q9NZJ5); ATP probe labelling, inhibitor, KiNativ profiling; 0.1 µM).
`CCOC(=O)[C@](CC)(CCCSCCOCCOCCNC(=O)c1ccc(-c2c3ccc(=N)c(S(=O)(=O)O)c-3oc3c(S(=O)(=O)O)c(N)ccc23)c(C(=O)O)c1)NC(=O)c1ccc(C2CC2)c(Cc2ccc(F)cc2)n1` has an inhibition of 0% (AGTR1; ligand displacement, radioligand; 10 µM).
With `CN[C@@H]1[C@H](O)[C@H](NC)[C@H]2O[C@]3(O)[C@H](O[C@@H]2[C@H]1O)O[C@H](C)C[C@H]3NC(=O)Cc1cc(Cl)ccn1` the inhibition was -2% (Alpha-1B adrenergic receptor (Adra1b, Rattus norvegicus, UniProt P15823); ligand displacement, radioligand; 10 µM).
The inhibition of `COc1ccc(F)cc1S(=O)(=O)Nc1cnc2c(c1)C(=O)NCCO2` is reported as 0% (Cysteinyl leukotriene receptor 1 (CYSLTR1, Homo sapiens, UniProt Q9Y271); ligand displacement, radioligand; 10 µM).
The inhibition of `CCCCCCCCCCCCCCCCCC(=O)NC[C@H]1CC[C@H](C(=O)N[C@@H](CCC(=O)NCCCOCCOCCOCCCNC(=O)COCC(=O)N[C@@H](Cc2ccc(O)cc2)C(=O)NC(C)(Cc2ccccc2)C(=O)N[C@@H](CC(C)C)C(=O)N[C@@H](CCCC)C(=O)N[C@@H](CCCNC(=N)N)C(=O)N2CCC[C@H]2C(=O)N[C@@H](CCCNC(=N)NC)C(=O)N[C@@H](CC(N)=O)C(N)=O)C(=O)O)CC1` (some centres unmarked) is reported as 64% (Bombesin receptor subtype-3 (BRS3, Homo sapiens, UniProt P32247); antagonist, DiscoverX GPCR panel; 1 µM).
For `Cc1cc(-c2ccc3ccccc3c2)nnc1NCCN1CCN(C)CC1`, the inhibition was 9% (Prostaglandin G/H synthase 2 (PTGS2, Homo sapiens, UniProt P35354); enzyme activity; 10000 nM).
The inhibition of `N[C@H](C(=O)N1CCCC1)C1CCN(c2nccc3c(-c4ncc(Cl)cc4Cl)cccc23)CC1` is reported as 33% (AGTR1; functional response, antagonist; 10 µM).
With `CN[C@@H]1[C@H](O)[C@H](NC)[C@H]2O[C@]3(O)[C@H](O[C@@H]2[C@H]1O)O[C@H](C)C[C@H]3NC(=O)Cc1ccc(Cl)cn1` the inhibition was 4% (5-hydroxytryptamine receptor 1A (HTR1A, Homo sapiens, UniProt P08908); ligand displacement, radioligand; 10 µM).
`C/C(=N\OCCCN1CCCCC1)c1ccc(C(F)(F)F)cc1` gave an inhibition of 4.57% (Alpha-1A adrenergic receptor (ADRA1A, Homo sapiens, UniProt P35348); antagonist, IP-One; 10 µM).
The inhibition of `C[C@H](NCc1ccc(-c2ccc(C(F)(F)F)cc2)cc1)C(N)=O` is reported as -5% (PDE4, human; enzyme activity; biochemical; 1 µM, with: [3H]cAMP 1.01 µM).
With `CC(C)[C@H]1NC(=O)C[C@H]2/C=C/CCSSC[C@@H](NC1=O)C(=O)N[C@H](Cc1cccc3ccccc13)C(=O)NCC(=O)O2` the inhibition was -9% (Tyrosine-protein kinase SYK (SYK, Homo sapiens, UniProt P43405); enzyme activity, inhibitor; 10 µM).
With `CN(/N=C/c1ccccc1C(=O)O)c1nc(-c2ccccc2Cl)cs1` the inhibition was -14.2% (Tyrosine-protein kinase ABL2 (ABL2, Homo sapiens, UniProt P42684); enzyme activity, inhibitor; 1 µM).
With `CCC1CC(c2ccc(C(=O)O)cc2C)=NN1c1ccc(C#N)c(Cl)c1` (centres unmarked) the inhibition was 0% (N-lysine methyltransferase SMYD2 (SMYD2, Homo sapiens, UniProt Q9NRG4); enzyme activity, inhibitor; 10 µM).
`O=C(N1CCCCC1)n1ccnn1` gave an inhibition of under 50% (Neutral cholesterol ester hydrolase 1 (Mus musculus, UniProt Q8BLF1); probe labeling, inhibitor, gel-based competitive ABPP; mouse T-cell proteome; 1 µM, 30 min, 37 °C).
With `Cc1ccc2c(n1)c(-c1cccc(S(C)(=O)=O)c1)c(C)n2C/C(F)=C/CN` the inhibition was 13% (protein tyrosine kinase (human); 10 µM).
For `C=CC(=O)Nc1cc(-c2nn(C3CCC(N4CCN(C(C)=O)CC4)CC3)c3ncnc(N)c23)ccc1Oc1ccccc1` (centres unmarked), the inhibition was -10.8% (Serine/threonine-protein kinase 32C (STK32C, Homo sapiens, UniProt Q86UX6); inhibitor, KiNativ profiling; biochemical; 2 µM).

For quick reference, copied from above:
With `CN[C@@H]1[C@H](O)[C@H](NC)[C@H]2O[C@]3(O)[C@H](O[C@@H]2[C@H]1O)O[C@H](C)C[C@H]3NC(=O)Cc1cc(Cl)ccn1` the inhibition was -2% (Alpha-1B adrenergic receptor (Adra1b, Rattus norvegicus, UniProt P15823); ligand displacement, radioligand; 10 µM).
The inhibition of `CS(C)(=O)=Nc1ccc(-c2ccc(-c3nc4cc(O[C@@H]5CO[C@H]6[C@@H]5OC[C@H]6O)[nH]c4cc3F)cc2)cc1` is reported as -17% (Mast/stem cell growth factor receptor Kit (KIT, Homo sapiens, UniProt P10721, D816H); enzyme activity, inhibitor; 10 µM).
The inhibition of `C[C@H](NCc1ccc(-c2ccc(C(F)(F)F)cc2)cc1)C(N)=O` is reported as -5% (PDE4, human; enzyme activity; biochemical; 1 µM, with: [3H]cAMP 1.01 µM).
